{"data": "Experimental data of several laboratories", "CYP3A4": "Cytochrome P450 3A4 (CYP3A4, Homo sapiens, UniProt P08684)", "SLC22A2": "Solute carrier family 22 member 2 (SLC22A2, Homo sapiens, UniProt O15244)", "note": "Lines come from different studies, so protocols differ. Several values in a cell are separate wells, animals, samples, runs or records. ± gives the spread as reported.", "chain of UniProt P08684 (whole entry, looked up)": "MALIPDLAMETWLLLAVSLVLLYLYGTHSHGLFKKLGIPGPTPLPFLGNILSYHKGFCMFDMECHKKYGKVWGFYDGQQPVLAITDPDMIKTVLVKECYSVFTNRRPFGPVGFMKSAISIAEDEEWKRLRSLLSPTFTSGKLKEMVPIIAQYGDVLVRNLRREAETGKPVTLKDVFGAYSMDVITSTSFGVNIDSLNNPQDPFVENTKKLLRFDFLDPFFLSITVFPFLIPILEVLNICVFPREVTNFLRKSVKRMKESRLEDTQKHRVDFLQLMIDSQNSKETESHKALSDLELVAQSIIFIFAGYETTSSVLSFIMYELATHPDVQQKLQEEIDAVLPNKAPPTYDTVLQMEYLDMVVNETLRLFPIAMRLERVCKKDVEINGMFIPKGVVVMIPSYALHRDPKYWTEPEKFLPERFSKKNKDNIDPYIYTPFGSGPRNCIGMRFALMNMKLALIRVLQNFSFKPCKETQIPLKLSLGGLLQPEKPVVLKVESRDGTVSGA", "chain of UniProt O15244 (whole entry, looked up)": "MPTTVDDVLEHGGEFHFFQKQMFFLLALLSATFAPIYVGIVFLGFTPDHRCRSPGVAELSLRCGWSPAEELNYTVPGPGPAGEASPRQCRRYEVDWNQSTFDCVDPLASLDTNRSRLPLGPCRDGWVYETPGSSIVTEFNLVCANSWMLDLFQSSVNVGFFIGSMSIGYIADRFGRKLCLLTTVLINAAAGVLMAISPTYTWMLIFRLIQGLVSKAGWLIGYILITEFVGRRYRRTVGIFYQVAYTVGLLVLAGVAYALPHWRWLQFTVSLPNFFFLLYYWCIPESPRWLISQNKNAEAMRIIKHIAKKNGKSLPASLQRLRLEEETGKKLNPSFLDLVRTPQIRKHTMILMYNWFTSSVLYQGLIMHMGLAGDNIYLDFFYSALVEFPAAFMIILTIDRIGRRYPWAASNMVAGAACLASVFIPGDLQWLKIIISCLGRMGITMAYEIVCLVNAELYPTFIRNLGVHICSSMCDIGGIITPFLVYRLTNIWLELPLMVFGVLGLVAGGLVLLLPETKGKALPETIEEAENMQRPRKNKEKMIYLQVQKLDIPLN", "chain of UniProt Q13936 (whole entry, looked up)": "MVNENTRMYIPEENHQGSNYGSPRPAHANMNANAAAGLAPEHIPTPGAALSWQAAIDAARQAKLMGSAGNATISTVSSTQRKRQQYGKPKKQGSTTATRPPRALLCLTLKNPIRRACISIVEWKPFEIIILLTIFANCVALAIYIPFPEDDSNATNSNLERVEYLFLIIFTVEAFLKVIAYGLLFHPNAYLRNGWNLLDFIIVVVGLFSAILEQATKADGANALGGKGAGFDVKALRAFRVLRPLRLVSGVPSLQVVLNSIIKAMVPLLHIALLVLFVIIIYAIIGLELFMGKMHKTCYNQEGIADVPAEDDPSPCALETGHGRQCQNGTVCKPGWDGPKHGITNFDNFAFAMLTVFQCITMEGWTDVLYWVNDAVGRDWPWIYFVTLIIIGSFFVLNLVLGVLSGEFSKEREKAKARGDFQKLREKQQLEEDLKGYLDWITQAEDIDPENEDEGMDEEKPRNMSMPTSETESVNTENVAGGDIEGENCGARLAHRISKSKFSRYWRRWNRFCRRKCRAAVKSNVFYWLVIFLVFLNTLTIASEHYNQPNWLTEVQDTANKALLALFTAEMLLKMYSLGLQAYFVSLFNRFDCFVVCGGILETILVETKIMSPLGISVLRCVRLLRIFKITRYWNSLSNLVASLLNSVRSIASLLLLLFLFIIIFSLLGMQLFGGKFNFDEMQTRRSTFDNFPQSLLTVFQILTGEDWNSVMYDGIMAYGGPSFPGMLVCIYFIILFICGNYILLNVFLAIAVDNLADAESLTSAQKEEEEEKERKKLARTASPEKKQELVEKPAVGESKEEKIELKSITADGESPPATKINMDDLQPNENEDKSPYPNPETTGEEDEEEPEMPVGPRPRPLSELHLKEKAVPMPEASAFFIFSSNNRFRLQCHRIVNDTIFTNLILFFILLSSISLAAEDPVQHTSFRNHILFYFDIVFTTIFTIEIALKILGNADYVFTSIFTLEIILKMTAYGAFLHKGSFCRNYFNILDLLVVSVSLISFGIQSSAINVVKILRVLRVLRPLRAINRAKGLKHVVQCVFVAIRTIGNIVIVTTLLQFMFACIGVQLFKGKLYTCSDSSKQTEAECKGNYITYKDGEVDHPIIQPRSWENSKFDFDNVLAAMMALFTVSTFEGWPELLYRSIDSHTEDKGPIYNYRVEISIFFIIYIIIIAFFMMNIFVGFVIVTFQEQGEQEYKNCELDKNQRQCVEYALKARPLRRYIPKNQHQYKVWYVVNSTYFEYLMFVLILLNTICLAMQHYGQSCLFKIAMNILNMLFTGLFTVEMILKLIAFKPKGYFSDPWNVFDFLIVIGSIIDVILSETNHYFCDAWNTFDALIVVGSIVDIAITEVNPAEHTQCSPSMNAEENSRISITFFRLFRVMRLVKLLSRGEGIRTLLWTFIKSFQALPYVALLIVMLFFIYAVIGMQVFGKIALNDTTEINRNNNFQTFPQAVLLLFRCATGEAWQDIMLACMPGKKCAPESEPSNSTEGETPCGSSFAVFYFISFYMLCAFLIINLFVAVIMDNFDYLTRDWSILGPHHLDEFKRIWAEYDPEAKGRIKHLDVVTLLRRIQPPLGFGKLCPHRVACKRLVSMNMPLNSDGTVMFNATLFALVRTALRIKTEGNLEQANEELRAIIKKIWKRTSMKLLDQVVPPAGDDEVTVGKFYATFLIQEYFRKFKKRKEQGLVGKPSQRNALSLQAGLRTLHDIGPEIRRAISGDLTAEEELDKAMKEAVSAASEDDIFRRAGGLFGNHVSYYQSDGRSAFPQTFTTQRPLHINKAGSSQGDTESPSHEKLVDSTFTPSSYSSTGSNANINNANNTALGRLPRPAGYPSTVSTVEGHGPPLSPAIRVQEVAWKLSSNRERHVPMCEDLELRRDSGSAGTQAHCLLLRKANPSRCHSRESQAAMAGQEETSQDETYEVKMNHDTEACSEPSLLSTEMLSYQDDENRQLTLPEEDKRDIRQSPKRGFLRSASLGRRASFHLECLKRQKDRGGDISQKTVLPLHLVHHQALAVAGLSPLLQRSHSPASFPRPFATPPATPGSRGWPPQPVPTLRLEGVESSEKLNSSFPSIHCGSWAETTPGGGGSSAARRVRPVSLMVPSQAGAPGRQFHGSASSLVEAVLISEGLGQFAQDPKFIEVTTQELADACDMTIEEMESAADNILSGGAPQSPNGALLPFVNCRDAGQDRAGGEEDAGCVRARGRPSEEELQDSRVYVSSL", "chain of UniProt Q9NPD5 (whole entry, looked up)": "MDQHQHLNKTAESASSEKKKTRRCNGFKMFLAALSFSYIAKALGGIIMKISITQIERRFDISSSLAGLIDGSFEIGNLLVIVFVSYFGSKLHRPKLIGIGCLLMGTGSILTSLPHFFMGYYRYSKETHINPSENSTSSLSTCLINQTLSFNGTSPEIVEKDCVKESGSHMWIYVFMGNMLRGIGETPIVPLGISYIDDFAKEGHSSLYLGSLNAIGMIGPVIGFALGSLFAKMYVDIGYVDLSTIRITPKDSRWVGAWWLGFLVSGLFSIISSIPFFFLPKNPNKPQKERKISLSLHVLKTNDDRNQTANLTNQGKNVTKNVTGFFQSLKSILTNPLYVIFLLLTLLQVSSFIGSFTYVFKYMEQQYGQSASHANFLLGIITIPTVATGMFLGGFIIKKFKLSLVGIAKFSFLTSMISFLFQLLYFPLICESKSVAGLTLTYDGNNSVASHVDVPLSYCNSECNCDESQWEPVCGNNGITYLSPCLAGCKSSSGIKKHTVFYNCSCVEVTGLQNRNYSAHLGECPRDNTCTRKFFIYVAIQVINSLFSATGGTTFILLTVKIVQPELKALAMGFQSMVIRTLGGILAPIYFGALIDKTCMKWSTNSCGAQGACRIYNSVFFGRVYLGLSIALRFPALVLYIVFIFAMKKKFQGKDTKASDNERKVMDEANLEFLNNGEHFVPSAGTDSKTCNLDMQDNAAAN"}
{"SMILES": "CCN(CC)CCOc1ccc(-c2nnn(Cc3ccc(OC)cc3)c2N)cc1", "target or system": "CYP3A", "assay": "inhibitor", "quantity": "IC50", "value": "> 50 µM"}
{"SMILES": "O=C(CN1C(=O)C2(CCN(C(=O)c3cnc4[nH]ncc4c3)CC2)c2c(Br)cccc21)NCC(F)(F)F", "target or system": "CYP3A4", "assay": "enzyme activity, inhibitor", "quantity": "IC50", "value": "> 20 µM"}
{"SMILES": "CC[C@H](C)[C@@H]1NC(=O)[C@H](CC(C)C)NC(=O)[C@@H](NC(=O)[C@H](CCCNC(=N)N)NC(=O)[C@@H](NC(=O)CNC(=O)[C@@H]2CCCN2C(=O)[C@@H]2CCC(=O)NCC(=O)N[C@@H](CO)C(=O)N[C@@H](CCCNC(=N)N)C(=O)NCC(=O)N[C@@H](Cc3c[nH]c4ccccc34)C(=O)NCC(=O)N[C@@H](Cc3ccccc3)C(=O)N2)C(C)C)CSSC[C@@H](C(=O)N[C@@H](CC(=O)O)C(=O)O)NC(=O)[C@H](Cc2c[nH]c3ccccc23)NC1=O", "target or system": "carboxypeptidase B", "assay": "substrate, LC-MS", "setting": "20 h, room temperature", "quantity": "proteolytic stability", "value": "stable"}
{"SMILES": "CNC(=O)C1CCCN(C(=O)C2CC3CCC2N3C(=O)[C@@H]2C[C@@H](O)CN2C(=O)NCc2cccc(Cl)c2F)C1 (mixture of isomers)", "target or system": "human CYP3A4", "assay": "time-dependent inhibition", "setting": "50 µM, preincubation without NADPH, together with: midazolam", "quantity": "1-hydroxymidazolam formed", "value": "1240 ng/mL"}
{"SMILES": "CC[C@H](C)[C@@H]1NC(=O)[C@H](CO)NC(=O)[C@H](CCCCN)NC(=O)[C@@H]2CSSC[C@@H](C(=O)N[C@@H](Cc3ccc(O)cc3)C(N)=O)NC(=O)[C@H](CCCCN)NC(=O)[C@@H]3CSSC[C@H](NC(=O)[C@H](CCCNC(=N)N)NC(=O)[C@H](CC(C)C)NC(=O)[C@H](CC(=O)O)NC(=O)[C@H](CC(=O)O)NC(=O)[C@H](CCC(=O)O)NC(=O)[C@H](CC(N)=O)NC(=O)[C@H](Cc4c[nH]c5ccccc45)NC(=O)[C@@H]4CCCN4C(=O)CNC(=O)[C@H](CC(N)=O)NC(=O)[C@@H](NC(=O)CNC(=O)[C@H](Cc4ccccc4)NC(=O)CN)CSSC[C@H](NC(=O)[C@H](Cc4ccc(O)cc4)NC(=O)CNC(=O)CNC(=O)[C@H](CCCCN)NC(=O)[C@H](Cc4ccc(O)cc4)NC(=O)CNC(=O)[C@H](CCCCN)NC1=O)C(=O)N[C@@H](C)C(=O)N[C@@H](CCCCN)C(=O)NCC(=O)NCC(=O)N[C@@H](Cc1ccccc1)C(=O)N[C@@H](C(C)C)C(=O)N3)C(=O)N[C@@H](Cc1c[nH]cn1)C(=O)N[C@@H](CC(N)=O)C(=O)N[C@@H](Cc1c[nH]cn1)C(=O)N2", "target or system": "trypsin", "assay": "peptide degradation, HPLC", "system": "NH4HCO3 CaCl2 buffer", "setting": "13.2 µM, pH 8.5, room temperature, together with: trypsin 36 µM", "quantity": "half-life", "value": "3 min"}
{"SMILES": "C/C(=N\\OCCCN1CCCCC1)c1ccc(C(F)(F)F)cc1", "target or system": "CACNA1C (Homo sapiens, UniProt Q13936)", "assay": "ion current, antagonist, manual patch clamp", "setting": "10 µM", "quantity": "inhibition", "value": "34.5%"}
{"SMILES": "CC[C@H](C)[C@@H]1NC(=O)[C@H]([C@@H](C)O)NC(=O)CNC(=O)[C@H](CCCNC(=N)N)NC(=O)[C@H](CC(C)C)NC(=O)[C@@H]2CSSC[C@H](NC1=O)C(=O)N[C@H](C(=O)N[C@@H](CO)C(=O)NCC(N)=O)CSSC[C@H](NC(=O)[C@H](C)N)C(=O)N[C@@H](C)C(=O)N[C@@H](Cc1c[nH]c3ccccc13)C(=O)N2", "target or system": "Chymotrypsinogen A, activated (alpha-chymotrypsin) (Bos taurus, UniProt P00766)", "assay": "substrate, RP-HPLC/ESI-MS", "setting": "30 µM, 32 h, pH 7.4, 37 °C, PBS, ratio 1:100, together with: bovine α-chymotrypsin 300 nM", "quantity": "cleavage", "value": "60%"}
{"SMILES": "Cc1ccc(OCCN(C)C)cc1C(=O)N[C@H](C)c1cc(-c2cccnc2N2CCCC2)nc2ccccc12", "target or system": "Vero E6", "setting": "31.25 µM", "quantity": "viability", "value": "71.9% and 99.1%"}
{"SMILES": "CNC(=O)C1OC(n2cnc3c(NCc4cccc(I)c4)ncnc32)C(O)C1O (centres unmarked)", "target or system": "SLCO1B3 (Homo sapiens, UniProt Q9NPD5)", "assay": "transport, inhibitor", "system": "transiently transfected cells", "setting": "100 µM, 10 (unit not given), together with: CCK-8", "quantity": "inhibition", "value": "91.7%"}
{"SMILES": "O=C1NC2(CC2)COc2ncc(F)cc2[C@H]2COCCN2c2ccn3ncc1c3n2", "system": "Sprague-Dawley rat, male, spleen", "setting": "oral, 10 mg/kg/day, 4 weeks dosing, end of recovery", "quantity": "organ-to-brain weight ratio", "value": "53 ± 9.13%"}
{"SMILES": "O=C(CN1C(=O)C2(CCN(C(=O)c3cnc4[nH]ncc4c3)CC2)c2c(Cl)cccc21)NCC(F)(F)F", "target or system": "CYP3A4", "assay": "enzyme activity, inhibitor", "quantity": "IC50", "value": "33 µM"}
{"SMILES": "CC(C)C[C@H](NC(=O)[C@H](CC(C)C)NC(=O)[C@H](CCCCN)NC(=O)[C@H](Cc1ccccc1)NC(=O)[C@@H](NC(=O)[C@H](CCCNC(=N)N)NC(=O)[C@@H](N)CCCCN)C(C)C)C(=O)N[C@@H](CCCCN)C(=O)N[C@@H](CCCNC(=N)N)C(=O)N[C@@H](Cc1ccc(O)cc1)C(=O)N[C@@H](Cc1c[nH]c2ccccc12)C(=O)N[C@@H](CCCNC(=N)N)C(=O)N[C@@H](CCC(N)=O)C(=O)N[C@@H](CC(C)C)C(=O)N[C@@H](CCCCN)C(=O)N[C@@H](CCCCN)C(=O)N1CCC[C@H]1C(=O)N[C@H](C(=O)N[C@@H](CCCNC(=N)N)C(=O)NCCOCCOCC(=O)O)C(C)C", "target or system": "Chymotrypsinogen A (Bos taurus, UniProt P00766)", "assay": "HPLC", "setting": "1 mg/mL, 6 h, 37 °C, together with: enzyme to peptide 50:1", "quantity": "intact peptide remaining", "value": "32 to 35%"}
{"SMILES": "CC(=O)NCCCC[C@@H]1NC(=O)[C@H](Cc2c[nH]c3c(C)cccc23)NC(=O)[C@H]([C@@H](C)O)NC(=O)[C@H](CC(N)=O)NC(=O)[C@@H](NC(C)=O)C(C)(C)SSC(C)(C)[C@@H](C(=O)N[C@@H](Cc2ccc(OCCN)cc2)C(=O)N[C@@H](Cc2ccc3ccccc3c2)C(=O)NC2(C(=O)N[C@@H](CCC(=O)O)C(=O)N[C@@H](CC(N)=O)C(=O)N[C@@H](Cc3cccnc3)C(=O)N(C)CC(N)=O)CCOCC2)NC1=O", "target or system": "SLC22A2", "assay": "substrate", "system": "HEK293 expressing SLC22A2", "setting": "5 µM, 30 min", "quantity": "uptake rate", "value": "0.449 ± 0.094 pmol/mg/min"}
{"SMILES": "Cc1ccc(OCCN(C)C)cc1C(=O)N[C@H](C)c1cc(-c2cnn(CC(=O)N(C)C)c2)nc2ccccc12", "target or system": "African green monkey cells", "setting": "7.812 µM", "quantity": "viability", "value": "86.5%"}
{"SMILES": "Cc1cc(-c2ccc3ccccc3c2)nnc1NCCN1CCN(C)CC1", "target or system": "SLC22A2", "assay": "transporter uptake, inhibitor", "setting": "10 µM", "quantity": "inhibition", "value": "67%"}
{"SMILES": "CCCCCCCCCCCC(=O)C(C)C(=O)N1CCC[C@H]1C(=O)NC(C)(C)C(=O)NC(C)(C)C(=O)NC(C)(C)C(=O)N[C@](C)(CC)C(=O)NCCC(=O)N[C@@H](C)C(=O)N[C@](C)(CC)C(=O)N[C@@H](C)C(=O)N[C@@H](CC(C)C)C(=O)N[C@](C)(CC)C(=O)NCCC(=O)N[C@@H](C)C(=O)N[C@](C)(CC)C(=O)NCCC(=O)N[C@@H](C)C(=O)NC(C)(C)C(=O)NC(C)(C)C(=O)NC(C)(C)C(=O)N[C@@H](C)C(=O)N[C@@H](CC(=O)O)C(=O)O (some centres unmarked)", "target or system": "trypsin", "assay": "LC-MS", "setting": "40 µM, 120 min, pH 7.5, 37 °C", "scale": "relative to: 0 h", "quantity": "remaining intact peptide", "value": "70.1%"}
{"SMILES": "CCCCCCCC/C=C/CCCCCCCC(=O)[O][Pt-2]1([OH])([Cl])([NH+]=C(CC)N(C)CCNc2c3ccccc3[nH+]c3ccccc23)[NH]CCC[NH]1.O=[N+]([O-])O.O=[N+]([O-])O", "target or system": "Albumin (ALB, Homo sapiens, UniProt P02768)", "assay": "binding, fluorescence titration", "setting": "pH 7.4, recombinant human albumin", "quantity": "Kd", "value": "1.8 µM"}
{"note": "Repeated from above:"}
{"SMILES": "CC[C@H](C)[C@@H]1NC(=O)[C@H](CO)NC(=O)[C@H](CCCCN)NC(=O)[C@@H]2CSSC[C@@H](C(=O)N[C@@H](Cc3ccc(O)cc3)C(N)=O)NC(=O)[C@H](CCCCN)NC(=O)[C@@H]3CSSC[C@H](NC(=O)[C@H](CCCNC(=N)N)NC(=O)[C@H](CC(C)C)NC(=O)[C@H](CC(=O)O)NC(=O)[C@H](CC(=O)O)NC(=O)[C@H](CCC(=O)O)NC(=O)[C@H](CC(N)=O)NC(=O)[C@H](Cc4c[nH]c5ccccc45)NC(=O)[C@@H]4CCCN4C(=O)CNC(=O)[C@H](CC(N)=O)NC(=O)[C@@H](NC(=O)CNC(=O)[C@H](Cc4ccccc4)NC(=O)CN)CSSC[C@H](NC(=O)[C@H](Cc4ccc(O)cc4)NC(=O)CNC(=O)CNC(=O)[C@H](CCCCN)NC(=O)[C@H](Cc4ccc(O)cc4)NC(=O)CNC(=O)[C@H](CCCCN)NC1=O)C(=O)N[C@@H](C)C(=O)N[C@@H](CCCCN)C(=O)NCC(=O)NCC(=O)N[C@@H](Cc1ccccc1)C(=O)N[C@@H](C(C)C)C(=O)N3)C(=O)N[C@@H](Cc1c[nH]cn1)C(=O)N[C@@H](CC(N)=O)C(=O)N[C@@H](Cc1c[nH]cn1)C(=O)N2", "target or system": "trypsin", "assay": "peptide degradation, HPLC", "system": "NH4HCO3 CaCl2 buffer", "setting": "13.2 µM, pH 8.5, room temperature, together with: trypsin 36 µM", "quantity": "half-life", "value": "3 min"}
